Results collected from several papers.
Numbered parts are unrelated; each lists some results of a single study. Changes are numbered by the printed parent chain.

Study 1 — method: RNA Bind-n-Seq; molecule type: RNA; medium: in vitro; tested at: 365 nM; relative to: no-protein control; direction: higher = stronger binding; measurement: RBNS enrichment (R)
Target: RNA binding protein fox-1 homolog 2, RRM domain, GST-SBP tag (RBFOX2, Homo sapiens, UniProt O43251-10, residues 100-194)
Notes: natural RNA segment, single round, ends assumed
Construct (chain): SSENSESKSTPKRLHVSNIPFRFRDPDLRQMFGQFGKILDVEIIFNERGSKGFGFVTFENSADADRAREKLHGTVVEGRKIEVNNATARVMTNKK
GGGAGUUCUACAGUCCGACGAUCAGGUUUCUGUAAACCUGAAGCCUUGGUGCAUAGAGGGCUUUGUGGAAGCACAUAGUCAGCGGCUGGGGUUGAAGAGUGAGUGUCACCAUGCCUUUUAGUGGAGACCUGCAUGGAAUUCUCGGGUGCCAA: 1.4
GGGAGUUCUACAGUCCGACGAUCGGUGUAGCUGCCUCACAUGAGGUUAUUGCAAGAGUUCCCCUUGCAAUACCCUUUGUGCCCUCAAGAAUUAAAAGCCUCUAUGAUCCAGAGUUGCUAUGCACCAAAUUUUGUGGAAUUCUCGGGUGCCAA: 0.544
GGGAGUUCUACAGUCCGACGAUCUCCACCACAAGAUGGAGAUGGUCAGCACAAACCGAUUCUGUUCCUCUUUAAAGUGUAUAUUAGCCACUUAGCAAUCUCUAUAUUCUUUCAAGUAACCAAGCUGUUGACUUUGGAAUUCUCGGGUGCCAA: 0.31
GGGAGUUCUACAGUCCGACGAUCAUGAUGAUUGGUGUAGAAACGUAUGGGUCUGGGUGGCCUUUUACAUCUUGCCUACCAUUGCAUGAAACAUUGGGGUUUCUUCAAAAUGUGUGUGUCAUACUUCUUUUGGGUGGAAUUCUCGGGUGCCAA: 1.97
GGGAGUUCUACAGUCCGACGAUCGUGUGGAGUCAGUGCUGACAUCACUGGCUUGUGCUGUCUGUCACAUGUGUUUGUCUCUGCUGCUUGACCUCAUGGGAUGUACCCUCCAGUUCAACUGCCCAAAACAGACAUGGAAUUCUCGGGUGCCAA: 0.238
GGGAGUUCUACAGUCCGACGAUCUUGCUGGAACAGGACGGUUUGGAUGUUUAUAGGGGAAAUGGAUAGUAGAUGUUAGGACCAACUGAGAAGGUCCAACACAAGUGUGGAUUUUUCCAUGUGUCAAAAAUCUCUGGAAUUCUCGGGUGCCAA: 0.761
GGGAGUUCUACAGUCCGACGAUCGCCCGCUCCCAGGAGGCCAGGGCAGGCCUGCGUGGGCUGGAGGCGGGCGAGGCCGGCCCACCCCCUCGCUGGCACUGACUUUGCCUUGAACAGACCCCCCGACCCUCCCCUGGAAUUCUCGGGUGCCAA: 2.05
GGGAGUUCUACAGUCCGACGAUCUAUUUUUGUUUUUAAUGCUUUGAUAUUUCAAUGUUAGCCUCAAUUUCUGAACACCAUAGGUAGAAUGUAAAGCUUGUCUGAUCGUUCAAAGCAUGAAAUGGAUACUUAUAUGGAAUUCUCGGGUGCCAA: 1.65
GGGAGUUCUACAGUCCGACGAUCAUGUGAACGUUGAGUACACAUGAGUGCGUGUAUGCCCCCAGGCUGGGUCAGCUCUUCUGUGGAUUGCAUGGCGUGUGAUUAAAAGCCCAUGUGUUCCCACACAUCCACAUUGGAAUUCUCGGGUGCCAA: 0.515
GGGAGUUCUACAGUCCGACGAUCUGGGUUCGGGUCACUGCGGCGACGACUUGCUCAGACUGUCCCGGCGGCCGGAGUGACUUUCUCGCACCCCCUUGCCUGUCCCACCUCGCUGAACACCAUCCCGCCAUUAGUGGAAUUCUCGGGUGCCAA: 0.293
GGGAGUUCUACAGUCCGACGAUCUGGAAGUGUUCAAGAAAUAAAAAUCAACUUGUGUACUGAUAAAAUACUCUAGCCUGGGCCAGAGAAGAUAAUGUUCUUUAAUGUUGUCCAGGAAACCCUGGCUUGCUUGCUGGAAUUCUCGGGUGCCAA: 1.98
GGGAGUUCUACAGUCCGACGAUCUUAAGUGUUCUGUGGCUGAUUUACUAACAGUAACUGCCAUUUUUUGUCUGUGAUAACAGAGUGAUUUGUAAAACAGUGGUUGUUUUUUCAUUGUGUUUUCUUCGUGGAUUUGGAAUUCUCGGGUGCCAA: 0.36

Study 2 — method: RNA Bind-n-Seq; molecule type: RNA; medium: in vitro; tested at: not given; relative to: input RNA pool; direction: higher = stronger binding; measurement: bound/input enrichment
Target: RING finger protein unkempt homolog, zinc fingers 1-6, GST-SBP tag (UNK, Homo sapiens, UniProt Q9C0B0, residues 30-357)
Notes: RNA with constant flanks, human and mouse sites, ends assumed
Residues (chain): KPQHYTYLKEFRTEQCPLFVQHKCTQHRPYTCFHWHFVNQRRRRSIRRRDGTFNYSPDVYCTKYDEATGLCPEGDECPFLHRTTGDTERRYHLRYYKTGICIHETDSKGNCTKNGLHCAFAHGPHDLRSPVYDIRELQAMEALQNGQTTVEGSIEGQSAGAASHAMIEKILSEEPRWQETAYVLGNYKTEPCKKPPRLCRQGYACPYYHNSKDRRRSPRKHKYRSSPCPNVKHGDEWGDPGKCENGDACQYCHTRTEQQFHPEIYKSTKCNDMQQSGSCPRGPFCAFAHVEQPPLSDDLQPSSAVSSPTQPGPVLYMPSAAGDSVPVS
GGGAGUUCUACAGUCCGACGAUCGAUGACAAUCCAUUUGCAGAGUACAUGUGGAUGGAAAAUGAAGAAGAAUUCAACAGACAAAUAGAAGAGGAGUUAUGGGAAGAAGAAUUUAUUGAACGCUGUUUCCAAGAAAUGCUGGAACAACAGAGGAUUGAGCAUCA: 0.928 ratio
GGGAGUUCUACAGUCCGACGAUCAAUUAUUUUUCCUUGCUCAUGGGCUGGAUGGGAAUUAUCCCUCCUCCGGUGCAGUGUCAUCAUAGACUAUCCAUGACAGAUGAUAGCAAGAAGCAAGAUCUUAGUUCAUCAUUGACAGAUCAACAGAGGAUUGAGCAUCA: 0.147 ratio
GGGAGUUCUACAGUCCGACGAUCAGUAGAGAGAUAACAAAAGCUGCUCAGAGUCUCAAUGAACUUGAUUAUCUUUCUCAAGGAAUAGAUCUUUCUGGAAUAGAAGUGAUAGAAAAUGAUCUACUUUUUAUUGCAAGAGCCCGACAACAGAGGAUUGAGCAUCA: 0.193 ratio
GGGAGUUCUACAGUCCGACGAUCCACUCCUUCCCCAGGGUUUAAGAGAUUGGGGGCAGACAGGGACUUUCCUCUGCCGGCUGCGUGGAGAAGGAAGCGGCUAAAAGGUUUGGGCCGGGGAGUUCCCCAUUCGUUCUCCGGGGACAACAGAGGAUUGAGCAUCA: 0.155 ratio
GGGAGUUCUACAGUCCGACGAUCGGCUUUAUUCUGUGCCAUGGGAUGCUAAAUACGGAGGCUACCGCACUGAACCUUUGGAAGCUAGCUCUUCAGAGUAGCUCUUGCCUCUCUCUCUUUCGGGAUGAAGUUUUCCACAUUCACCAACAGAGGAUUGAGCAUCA: 0.142 ratio
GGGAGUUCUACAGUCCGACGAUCAGAAUUGAAGUGGGAGACGUGAAUCCUUCUCAAACACAGUAUAUUUCUGAACCUAGUCUCUGUCCAGAUUGCAGAGAAGGUCUGCUGUGCCAGCAGCAGAGGGACCUUCGAGAGUAUACCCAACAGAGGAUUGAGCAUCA: 0.122 ratio
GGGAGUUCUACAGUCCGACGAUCGACCCAACUCCAACAAUGAGAGAUGUGAACAAAAAAUUUUCAGUAAGGUACUUUUUGAAUUUAGUGCUUGUUGAUGAGGAAGACCGGAGGUACUUCAAACAGCAGGAGAUAAUUUUAUGGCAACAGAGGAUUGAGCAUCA: 0.365 ratio
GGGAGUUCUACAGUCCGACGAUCUUUCUCGGGAUUAUUGCUCUUCUGUCUAUAAAUUUUGAAUGAUACUGUGCCUUAAUUGGUUUUCAUAGUUUAAGUGUGUAUCAUUAUCAAAGUUGAUUAAUUUGGCUUCAUAGUAUAAUGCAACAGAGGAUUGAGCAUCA: 1.85 ratio
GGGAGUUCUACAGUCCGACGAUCUGUGCUUUUAUAUAACCAUUUUGUUAUUUGAAUCUUGAAAAACUAGUUUUCUUAUAUUCCUAUAGUCUUGGUUUUUUUAAAGGCCUUUGCAUACACCUUUAUGAUAGUUUAAGAUUGACUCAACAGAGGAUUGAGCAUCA: 5.29 ratio
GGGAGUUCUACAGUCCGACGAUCCAAUCAAGCUACAGACAGUCGAGUCCAGGCGUGUGCAGCUGUGUGGAGGAUGCCCAAGGAAUUAGAAUCCGGUAGCCACGAGUCCCCUGACGACCCUGCAAGCACUGCUCAGACCCUGGACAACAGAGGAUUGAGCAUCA: 0.0936 ratio
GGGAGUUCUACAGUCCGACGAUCGUUGCCAGCAGCACUGCUGAAAAGAAUGCAUUUAUUUCAUGCAUUUGGAAAUUGAAUCAGCGAUAUCUCCGGAAGAAAAUUGAUUUUGUCAAUGUUAGCUCACAGCUUUUGGAAGAAUCUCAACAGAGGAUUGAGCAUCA: 0.183 ratio

Study 3 — method: DHFR PCA, deep sequencing; medium: yeast; added: (+)-ABA 200 µM; relative to: wild-type fitted maximum; direction: higher = stronger binding; measurement: relative binding score
Target: ABI1, truncated, D143A, DHFR fusion (Arabidopsis thaliana)
Notes: methotrexate growth selection, single substitutions
Starting sequence: PYL1, truncated, DHFR fusion (Arabidopsis thaliana); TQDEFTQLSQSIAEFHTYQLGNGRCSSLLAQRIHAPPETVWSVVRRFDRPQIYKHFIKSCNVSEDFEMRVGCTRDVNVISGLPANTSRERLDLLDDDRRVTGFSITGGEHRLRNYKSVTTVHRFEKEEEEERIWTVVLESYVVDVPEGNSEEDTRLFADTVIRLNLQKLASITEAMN; partner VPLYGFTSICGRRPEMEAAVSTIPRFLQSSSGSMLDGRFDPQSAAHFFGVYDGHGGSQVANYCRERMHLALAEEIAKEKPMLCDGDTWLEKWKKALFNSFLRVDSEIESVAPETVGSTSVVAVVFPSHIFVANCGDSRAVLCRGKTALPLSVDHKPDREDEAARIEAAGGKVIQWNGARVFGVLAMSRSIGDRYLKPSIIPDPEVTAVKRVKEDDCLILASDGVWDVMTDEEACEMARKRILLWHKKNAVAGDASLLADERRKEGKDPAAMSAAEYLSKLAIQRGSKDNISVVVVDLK
V100P: -9.26%
E89W: -6.7%
V145L: 83.5%
L112H: 0.87%
T120H: 3.08%
L20C: 105%
E67M: 95.1%
N77C: 107%
I172F: 86.7%
M176S: 98.4%
R74V: -6.47%
E131L: 103%
S63K: 100%
P83I: 6.04%
V161R: -4.46%
Q2L: 100%
T39E: 100%
R113D: 86.1%
L138A: 28.9%
N149E: 44.4%
E174S: 89.9%
V44T: 67.8%
V78P: 69.2%
I57T: 59.9%
E147S: 91.6%

Study 4 — method: protein binding microarray; molecule type: double-stranded DNA, one strand shown; medium: in vitro; tested at: not given; relative to: not given; direction: higher = stronger binding; measurement: E-score
Target: Histone acetyltransferase KAT6A, winged helix 1, GST fusion (KAT6A, Homo sapiens, UniProt Q92794, residues 1-85)
Notes: 8-mer, flanks averaged, mean of 2 arrays, mostly near background
Target sequence (chain): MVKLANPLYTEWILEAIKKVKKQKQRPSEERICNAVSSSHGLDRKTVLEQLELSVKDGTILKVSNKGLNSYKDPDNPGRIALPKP
AATCCCCC: -0.0534
CATCTTAA: -0.28
CACTTCCA: -0.0655
ACCTTCAC: -0.118
GCGCCAGA: 0.192
CGCTCACG: 0.36
AGTACTAT: -0.119
TAATGGCA: -0.117
GTAAACGA: 0.0617
CCGCCGGA: 0.467
TGAGCAAA: -0.178
CCTGGCCC: -0.0584
ATTTCCTC: -0.172
CCACCGCC: 0.217
CAAGGGAC: -0.148
TACTGACA: -0.147
CTCGCACA: 0.0954
CGGACTAA: 0.134
AATTTTTC: -0.0356
AGGCTTTG: -0.085
CCTCCTCA: -0.0905
TATATACA: -0.264

Study 5 — method: protein-binding microarray; molecule type: double-stranded DNA, one strand shown; medium: in vitro; tested at: not given; direction: higher = stronger binding; measurement: E-score
Target: Transcription factor Sp1 (SP1, Homo sapiens, UniProt P08047, residues 1-785, full length assumed)
Chain of UniProt P08047 (whole entry, looked up): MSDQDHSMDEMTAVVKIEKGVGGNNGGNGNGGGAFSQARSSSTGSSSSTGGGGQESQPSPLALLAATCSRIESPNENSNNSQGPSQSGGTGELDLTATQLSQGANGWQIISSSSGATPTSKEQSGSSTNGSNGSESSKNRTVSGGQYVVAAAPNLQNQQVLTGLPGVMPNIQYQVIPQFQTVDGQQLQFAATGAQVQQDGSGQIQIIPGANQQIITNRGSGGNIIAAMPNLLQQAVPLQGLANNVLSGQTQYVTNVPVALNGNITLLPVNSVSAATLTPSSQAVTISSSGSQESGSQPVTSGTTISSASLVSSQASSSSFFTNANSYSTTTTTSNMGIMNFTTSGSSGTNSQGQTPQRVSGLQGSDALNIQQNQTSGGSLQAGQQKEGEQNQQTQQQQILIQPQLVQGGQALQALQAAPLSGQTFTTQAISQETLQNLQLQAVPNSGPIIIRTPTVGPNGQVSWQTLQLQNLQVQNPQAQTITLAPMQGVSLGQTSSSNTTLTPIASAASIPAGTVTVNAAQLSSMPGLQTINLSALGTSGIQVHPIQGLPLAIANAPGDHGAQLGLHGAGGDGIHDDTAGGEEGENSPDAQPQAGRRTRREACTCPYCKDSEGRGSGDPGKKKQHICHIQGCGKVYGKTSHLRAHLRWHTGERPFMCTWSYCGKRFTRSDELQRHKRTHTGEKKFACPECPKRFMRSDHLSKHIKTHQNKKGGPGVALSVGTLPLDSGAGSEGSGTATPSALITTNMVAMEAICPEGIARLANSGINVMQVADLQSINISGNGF
Notes: k-mer, scored over probes, only values ≥0.25
CCCAATAA: 0.253
CTATCTCC: 0.279
GGGTGGGA: 0.474
AGGGGCGA: 0.3
AGGGGATC: 0.257
AAGGGGAT: 0.265
CGCCCTCC: 0.339
CTCCCACC: 0.368
CCCGCCCC: 0.498
CAAAGGGG: 0.275
CACGTGGA: 0.259
CACGCCTC: 0.378
CCACCCTC: 0.329
CACATGTA: 0.293
CCCACACG: 0.253
ATGGGGGC: 0.346

Some of these lines once more (study 5):
CTCCCACC: 0.368
CCCGCCCC: 0.498
CAAAGGGG: 0.275
CACGTGGA: 0.259
CACGCCTC: 0.378
